Measured values of several laboratories.
Parts stem from different laboratories: compare values within a part only.
Sequence of UniProt O15264 (whole entry, looked up): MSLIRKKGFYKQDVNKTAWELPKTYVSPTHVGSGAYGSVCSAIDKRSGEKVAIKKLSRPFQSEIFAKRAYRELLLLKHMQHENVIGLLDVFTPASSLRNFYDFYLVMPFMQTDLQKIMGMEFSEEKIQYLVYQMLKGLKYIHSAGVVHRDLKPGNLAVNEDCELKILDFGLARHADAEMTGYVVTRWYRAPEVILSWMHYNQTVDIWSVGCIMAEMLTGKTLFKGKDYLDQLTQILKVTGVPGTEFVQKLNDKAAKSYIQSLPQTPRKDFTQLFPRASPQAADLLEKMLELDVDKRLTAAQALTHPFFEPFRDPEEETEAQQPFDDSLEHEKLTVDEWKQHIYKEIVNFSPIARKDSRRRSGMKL
Sequence of UniProt Q9HBH9 (whole entry, looked up): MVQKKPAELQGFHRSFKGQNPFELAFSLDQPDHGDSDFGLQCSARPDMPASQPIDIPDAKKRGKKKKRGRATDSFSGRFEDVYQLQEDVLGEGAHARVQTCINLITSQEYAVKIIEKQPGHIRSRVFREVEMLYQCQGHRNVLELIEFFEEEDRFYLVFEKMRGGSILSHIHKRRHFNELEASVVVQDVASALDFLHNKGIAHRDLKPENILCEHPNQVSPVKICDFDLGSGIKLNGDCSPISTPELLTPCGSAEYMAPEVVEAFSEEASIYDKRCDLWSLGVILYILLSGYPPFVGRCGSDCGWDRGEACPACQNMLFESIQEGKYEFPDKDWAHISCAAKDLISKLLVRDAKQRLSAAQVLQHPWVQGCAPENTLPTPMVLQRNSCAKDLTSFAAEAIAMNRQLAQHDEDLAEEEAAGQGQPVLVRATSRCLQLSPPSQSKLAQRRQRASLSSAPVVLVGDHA
Sequence of UniProt Q02779 (whole entry, looked up): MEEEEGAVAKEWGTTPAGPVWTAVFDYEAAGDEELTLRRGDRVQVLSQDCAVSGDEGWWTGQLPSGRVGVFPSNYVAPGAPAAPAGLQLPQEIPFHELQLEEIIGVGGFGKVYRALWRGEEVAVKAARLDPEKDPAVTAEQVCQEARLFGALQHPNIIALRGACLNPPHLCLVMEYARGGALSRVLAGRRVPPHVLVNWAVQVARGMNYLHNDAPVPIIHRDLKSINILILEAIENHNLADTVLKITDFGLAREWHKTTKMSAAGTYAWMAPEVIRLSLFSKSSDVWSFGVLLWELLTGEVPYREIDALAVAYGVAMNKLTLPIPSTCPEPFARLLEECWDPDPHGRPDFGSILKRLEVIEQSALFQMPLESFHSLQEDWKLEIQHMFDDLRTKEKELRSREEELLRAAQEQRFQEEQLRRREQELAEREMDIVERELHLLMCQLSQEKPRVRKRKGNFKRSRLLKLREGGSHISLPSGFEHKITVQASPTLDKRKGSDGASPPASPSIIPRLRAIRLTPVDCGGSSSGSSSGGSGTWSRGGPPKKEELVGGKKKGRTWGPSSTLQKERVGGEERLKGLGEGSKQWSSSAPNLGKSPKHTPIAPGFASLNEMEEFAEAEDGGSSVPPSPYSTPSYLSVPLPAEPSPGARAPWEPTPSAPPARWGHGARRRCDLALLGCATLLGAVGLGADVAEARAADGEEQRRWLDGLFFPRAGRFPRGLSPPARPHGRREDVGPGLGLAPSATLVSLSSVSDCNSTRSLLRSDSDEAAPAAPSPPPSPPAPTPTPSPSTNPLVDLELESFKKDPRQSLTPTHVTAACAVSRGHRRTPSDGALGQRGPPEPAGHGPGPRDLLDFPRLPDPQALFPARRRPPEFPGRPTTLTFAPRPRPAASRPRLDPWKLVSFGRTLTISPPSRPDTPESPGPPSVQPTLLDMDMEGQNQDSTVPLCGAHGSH
Sequence of UniProt P07948 (whole entry, looked up): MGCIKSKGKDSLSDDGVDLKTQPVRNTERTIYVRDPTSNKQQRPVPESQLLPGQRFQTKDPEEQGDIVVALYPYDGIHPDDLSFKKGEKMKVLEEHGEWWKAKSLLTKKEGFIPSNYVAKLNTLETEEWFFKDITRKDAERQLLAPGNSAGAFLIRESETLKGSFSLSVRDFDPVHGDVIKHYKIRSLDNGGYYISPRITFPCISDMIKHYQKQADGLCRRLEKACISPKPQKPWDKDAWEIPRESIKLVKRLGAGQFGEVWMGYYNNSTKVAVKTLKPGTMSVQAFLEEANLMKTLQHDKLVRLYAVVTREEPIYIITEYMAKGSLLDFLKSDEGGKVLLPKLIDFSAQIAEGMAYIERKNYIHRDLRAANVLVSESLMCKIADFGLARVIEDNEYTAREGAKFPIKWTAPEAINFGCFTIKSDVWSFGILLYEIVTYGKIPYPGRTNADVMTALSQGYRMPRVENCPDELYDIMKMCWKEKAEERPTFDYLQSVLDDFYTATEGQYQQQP
Sequence of UniProt Q06187 (whole entry, looked up): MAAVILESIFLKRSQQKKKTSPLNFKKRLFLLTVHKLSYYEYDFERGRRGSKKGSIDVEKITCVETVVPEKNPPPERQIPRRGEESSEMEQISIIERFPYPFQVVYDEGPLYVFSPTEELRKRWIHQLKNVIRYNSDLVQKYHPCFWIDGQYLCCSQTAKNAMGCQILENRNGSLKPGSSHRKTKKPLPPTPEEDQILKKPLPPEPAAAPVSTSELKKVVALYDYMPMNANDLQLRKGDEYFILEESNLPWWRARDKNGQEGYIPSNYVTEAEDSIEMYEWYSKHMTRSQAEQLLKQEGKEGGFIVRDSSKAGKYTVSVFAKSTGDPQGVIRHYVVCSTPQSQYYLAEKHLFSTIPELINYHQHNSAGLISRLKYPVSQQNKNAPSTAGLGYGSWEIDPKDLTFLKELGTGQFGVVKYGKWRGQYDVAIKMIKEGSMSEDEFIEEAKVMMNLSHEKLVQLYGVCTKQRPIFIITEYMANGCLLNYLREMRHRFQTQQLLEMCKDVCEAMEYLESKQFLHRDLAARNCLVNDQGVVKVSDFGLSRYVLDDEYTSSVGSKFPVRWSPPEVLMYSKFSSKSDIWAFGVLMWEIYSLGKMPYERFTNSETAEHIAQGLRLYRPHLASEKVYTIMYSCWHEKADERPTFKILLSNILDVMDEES
Sequence of UniProt P68400 (whole entry, looked up): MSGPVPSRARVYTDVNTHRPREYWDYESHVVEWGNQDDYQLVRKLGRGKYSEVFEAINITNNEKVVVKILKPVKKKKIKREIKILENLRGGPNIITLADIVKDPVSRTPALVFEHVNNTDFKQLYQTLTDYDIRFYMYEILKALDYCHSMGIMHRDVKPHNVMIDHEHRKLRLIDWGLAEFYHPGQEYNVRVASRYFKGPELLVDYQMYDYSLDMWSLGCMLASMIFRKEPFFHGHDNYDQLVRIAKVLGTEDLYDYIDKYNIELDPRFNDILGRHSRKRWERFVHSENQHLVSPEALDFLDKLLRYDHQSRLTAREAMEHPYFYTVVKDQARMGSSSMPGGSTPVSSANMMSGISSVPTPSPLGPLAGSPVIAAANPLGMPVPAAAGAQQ
Sequence of UniProt Q9Y243 (whole entry, looked up): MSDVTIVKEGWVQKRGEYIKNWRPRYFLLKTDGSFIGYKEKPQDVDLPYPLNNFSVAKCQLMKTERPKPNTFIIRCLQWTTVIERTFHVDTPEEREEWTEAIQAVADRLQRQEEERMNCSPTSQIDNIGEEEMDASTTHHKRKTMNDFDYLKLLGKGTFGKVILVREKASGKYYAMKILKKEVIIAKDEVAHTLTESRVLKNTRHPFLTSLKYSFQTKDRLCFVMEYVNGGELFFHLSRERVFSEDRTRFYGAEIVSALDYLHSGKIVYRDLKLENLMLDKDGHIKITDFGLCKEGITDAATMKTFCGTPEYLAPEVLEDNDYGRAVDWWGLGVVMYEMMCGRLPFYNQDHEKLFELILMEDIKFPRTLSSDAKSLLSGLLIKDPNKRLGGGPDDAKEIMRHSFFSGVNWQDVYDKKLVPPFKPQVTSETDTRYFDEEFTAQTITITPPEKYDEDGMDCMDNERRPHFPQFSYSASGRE
Sequence of UniProt P53778 (whole entry, looked up): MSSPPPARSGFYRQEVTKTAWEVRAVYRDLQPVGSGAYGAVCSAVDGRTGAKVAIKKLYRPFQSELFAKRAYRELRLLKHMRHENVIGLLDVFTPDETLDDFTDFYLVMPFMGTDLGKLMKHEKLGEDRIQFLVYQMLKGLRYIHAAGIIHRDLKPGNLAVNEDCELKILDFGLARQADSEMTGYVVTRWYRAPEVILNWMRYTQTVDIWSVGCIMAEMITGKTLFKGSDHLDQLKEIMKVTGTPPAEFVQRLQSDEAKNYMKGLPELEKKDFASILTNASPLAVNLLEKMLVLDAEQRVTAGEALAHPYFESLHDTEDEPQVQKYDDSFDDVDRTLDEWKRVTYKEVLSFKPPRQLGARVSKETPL

Series 1
Target: RING finger protein unkempt homolog, zinc fingers 1-6, GST-SBP tag (UNK, Homo sapiens, UniProt Q9C0B0, residues 30-357)
Sequence of UniProt Q9C0B0 (30-357, looked up): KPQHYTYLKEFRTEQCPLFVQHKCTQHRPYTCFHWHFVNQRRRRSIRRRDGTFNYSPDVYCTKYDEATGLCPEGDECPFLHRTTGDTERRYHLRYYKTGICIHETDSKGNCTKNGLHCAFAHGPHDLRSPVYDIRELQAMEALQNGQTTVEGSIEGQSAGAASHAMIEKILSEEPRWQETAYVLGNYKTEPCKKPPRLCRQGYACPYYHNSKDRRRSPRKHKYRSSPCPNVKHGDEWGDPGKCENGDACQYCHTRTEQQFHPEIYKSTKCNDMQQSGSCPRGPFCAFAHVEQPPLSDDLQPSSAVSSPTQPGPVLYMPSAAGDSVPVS
Method: RNA Bind-n-Seq
Molecule type: RNA
Matrix: in vitro
Concentration: not given
Notes: RNA with constant flanks, ends assumed
Relative to: input RNA pool
Direction: higher = stronger binding
Quantity: bound/input enrichment
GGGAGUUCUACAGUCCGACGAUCUUAGGCACAGCUGACAUGGCCACUUUCAUGGUCAAUUCACUAUAUAUGAUGAAGACAACAUCCGCUCUAUUUGAAUUCACUGACAGACGUCUGGAAAUGCUACAGUUUCAGAUCGAAGCACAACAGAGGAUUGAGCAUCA: 0.347 ratio
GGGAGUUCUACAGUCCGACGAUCGUUCGACUUUGGGAUCAUGCUACUAUGACAGAAGUGAAAUCUCUAAAUUUUAAUAUGUCUGUCCGCCGUAUGGAAUAUAUUCCUGAGGGAGAGAUUUUGGUUAUAACUUAUGGACGAUCUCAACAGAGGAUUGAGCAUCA: 0.352 ratio
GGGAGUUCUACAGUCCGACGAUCGGGAGCGCAGAGCGGCCUUUCCAGCAUGCAGCGGCUGCUCAGAGUAUAGAAAUAUCAAGAAACCGGAGAGAAUUCAACCAUGGCCCCACGGAAGAGAGGCGGCCGGGGGAUUUCAUUUAUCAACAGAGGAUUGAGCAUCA: 0.44 ratio
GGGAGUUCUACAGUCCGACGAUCUAUUUCAGUGUCAUGGACUUCCUCAAAAUGAAGUGCUAUUUUCUUAUUUUUAAUCAAAUAACCCGACAUAUAUCAGAAACUUUAAAAUGUAAAAGUUGUACACUUUCAACAUUUUAUUACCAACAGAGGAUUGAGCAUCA: 0.174 ratio
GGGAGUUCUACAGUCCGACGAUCUUUUGAAAACGAACUUCUCUAGCUACACAGAAGUAACAAAAUAUGUUAGUCAGUUUUGUAUUCCGAAAUGUAUUGGUAGCAGGGAUGUUUUCAUAAUUUUCAGAGAAUAUGCAUUCUUCACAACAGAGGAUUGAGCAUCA: 0.101 ratio
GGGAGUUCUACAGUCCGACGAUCACAAAAACAGUCAUUAAAGAAGGUGAAGAACAACUUCAGACUCAGCAUCAGAAAACUUUUACCGGAAAAAUUCCAAUUAUGUUGCGGUCAACUUACUGCCUUUUGAAUGGCUUGACAGAUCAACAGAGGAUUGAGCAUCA: 0.14 ratio
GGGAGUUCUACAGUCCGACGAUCAUAGUAUGUGAUCCUGUAUAACAGACUGAGUCUAUUUAUAUUUUCUUUUUUUUAAGACUGUCCCGAAAUUUUGUGUAUUAUGAGGGGAAAAAAGGAAAAGCUUGAAUCUGUGUAGUCUCUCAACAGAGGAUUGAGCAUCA: 0.533 ratio
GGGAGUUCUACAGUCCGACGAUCUGCCAUUUGGUUCCAAGUAGGUGCAGGACAAAAUGGAACUGGGUUCUACAUGCUGGGUUGACCCGGUUACACAUUUUAGCCUAUGAAGUUAGUGGCCUAUAAAACUUAAUCCUUAACGUUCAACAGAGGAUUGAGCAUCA: 0.879 ratio

Series 2
Target: FOXO3, forkhead domain (mouse, UniProt Q9WVH4, residues 31-263)
Sequence of UniProt Q9WVH4 (31-263, looked up): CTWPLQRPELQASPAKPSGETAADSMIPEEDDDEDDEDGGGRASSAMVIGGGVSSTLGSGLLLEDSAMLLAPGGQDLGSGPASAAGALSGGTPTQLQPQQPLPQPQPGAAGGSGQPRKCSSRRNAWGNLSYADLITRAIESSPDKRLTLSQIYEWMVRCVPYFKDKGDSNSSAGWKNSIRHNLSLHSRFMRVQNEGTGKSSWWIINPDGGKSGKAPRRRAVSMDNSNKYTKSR
Method: protein-binding microarray
Molecule type: hairpin DNA
Matrix: in vitro
Concentration: not given
Notes: whole hairpin DNA, median over replicate spots
Relative to: not given
Direction: higher = stronger binding
Quantity: median fluorescence
GAGGCCCGGTAACCAACGCCTCCTGGCGTTGGTTACCGGGCCTCACACTC (5mC at 7 37): 4420 a.u.
GAGGCCCTGTAAACAACGCCTCCTGGCGTTGTTTACAGGGCCTCACACTC: 5290 a.u.
GAGGCCATGCAAAGAACGCCTCCTGGCGTTCTTTGCATGGCCTCACACTC: 3920 a.u.
GAGGCCATGTAAACACGGCCTCCTGGCCGTGTTTACATGGCCTCACACTC (5mC at 16): 4790 a.u.
GAGGCCATGTAACCACGGCCTCCTGGCCGTGGTTACATGGCCTCACACTC (5mC at 16): 3880 a.u.
GAGGCCATGCAAACCACGCCTCCTGGCGTGGTTTGCATGGCCTCACACTC (5mC at 15): 4440 a.u.
GAGGCCCGGCAAACAACGCCTCCTGGCGTTGTTTGCCGGGCCTCACACTC: 5680 a.u.
GAGGCCATGCAAACACCGCCTCCTGGCGGTGTTTGCATGGCCTCACACTC: 5030 a.u.

Series 3
Compound: Cc1cc(Nc2cc(N3CCN(C)CC3)nc(Sc3ccc(NC(=O)C4CC4)cc3)n2)[nH]n1
Effect on: enzyme activity
Action: inhibitor
Concentration: 0.5 µM
Relative to: control
Quantity: remaining activity
CSNK2A1 (Homo sapiens, UniProt P68400): 114%
MAP3K10 (Homo sapiens, UniProt Q02779): 61%
AKT3 (Homo sapiens, UniProt Q9Y243): 85%
MAPK12 (Homo sapiens, UniProt P53778): 96.2%
NEK4 (Homo sapiens, UniProt P51957): 103%
LYN (Homo sapiens, UniProt P07948): 52.6%
PLK2 (Homo sapiens, UniProt Q9NYY3): 104%
BTK (Homo sapiens, UniProt Q06187): 63.6%
LRRK2 (Homo sapiens, UniProt Q5S007): 56.4%
MKNK2 (Homo sapiens, UniProt Q9HBH9): 97.6%
MAPK13 (Homo sapiens, UniProt O15264): 89.5%

Single results of other studies
O=C([C@H]1C[C@H](O)CN1c1ccc(Cl)cc1)N1CC2COCC(C1)N2Cc1ccc(Cl)cc1  inhibition (5-hydroxytryptamine receptor 3A (HTR3A, Homo sapiens, UniProt P46098); binding, radioligand binding; 10 µM): -7.03%

Excerpt of the above (series 1):
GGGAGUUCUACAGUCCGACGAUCUAUUUCAGUGUCAUGGACUUCCUCAAAAUGAAGUGCUAUUUUCUUAUUUUUAAUCAAAUAACCCGACAUAUAUCAGAAACUUUAAAAUGUAAAAGUUGUACACUUUCAACAUUUUAUUACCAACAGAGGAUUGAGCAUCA: 0.174 ratio
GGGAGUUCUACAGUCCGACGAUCUUUUGAAAACGAACUUCUCUAGCUACACAGAAGUAACAAAAUAUGUUAGUCAGUUUUGUAUUCCGAAAUGUAUUGGUAGCAGGGAUGUUUUCAUAAUUUUCAGAGAAUAUGCAUUCUUCACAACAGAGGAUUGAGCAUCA: 0.101 ratio
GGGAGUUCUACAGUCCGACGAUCACAAAAACAGUCAUUAAAGAAGGUGAAGAACAACUUCAGACUCAGCAUCAGAAAACUUUUACCGGAAAAAUUCCAAUUAUGUUGCGGUCAACUUACUGCCUUUUGAAUGGCUUGACAGAUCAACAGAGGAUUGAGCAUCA: 0.14 ratio
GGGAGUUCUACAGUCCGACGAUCAUAGUAUGUGAUCCUGUAUAACAGACUGAGUCUAUUUAUAUUUUCUUUUUUUUAAGACUGUCCCGAAAUUUUGUGUAUUAUGAGGGGAAAAAAGGAAAAGCUUGAAUCUGUGUAGUCUCUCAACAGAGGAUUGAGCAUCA: 0.533 ratio
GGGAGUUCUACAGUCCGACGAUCUGCCAUUUGGUUCCAAGUAGGUGCAGGACAAAAUGGAACUGGGUUCUACAUGCUGGGUUGACCCGGUUACACAUUUUAGCCUAUGAAGUUAGUGGCCUAUAAAACUUAAUCCUUAACGUUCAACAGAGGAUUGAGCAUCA: 0.879 ratio
